Published values of several laboratories.
UniProt P00811, sequence (whole entry, looked up): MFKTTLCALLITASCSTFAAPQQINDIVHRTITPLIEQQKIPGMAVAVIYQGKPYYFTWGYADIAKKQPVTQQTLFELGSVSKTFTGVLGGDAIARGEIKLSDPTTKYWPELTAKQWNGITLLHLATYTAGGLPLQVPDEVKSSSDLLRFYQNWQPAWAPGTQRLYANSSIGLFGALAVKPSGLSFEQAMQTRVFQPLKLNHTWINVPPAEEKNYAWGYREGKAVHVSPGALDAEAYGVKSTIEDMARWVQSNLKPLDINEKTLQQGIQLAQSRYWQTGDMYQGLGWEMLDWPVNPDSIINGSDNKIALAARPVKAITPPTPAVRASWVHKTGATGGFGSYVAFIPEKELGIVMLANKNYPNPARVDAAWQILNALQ
UniProt Q9VK33, sequence (whole entry, looked up): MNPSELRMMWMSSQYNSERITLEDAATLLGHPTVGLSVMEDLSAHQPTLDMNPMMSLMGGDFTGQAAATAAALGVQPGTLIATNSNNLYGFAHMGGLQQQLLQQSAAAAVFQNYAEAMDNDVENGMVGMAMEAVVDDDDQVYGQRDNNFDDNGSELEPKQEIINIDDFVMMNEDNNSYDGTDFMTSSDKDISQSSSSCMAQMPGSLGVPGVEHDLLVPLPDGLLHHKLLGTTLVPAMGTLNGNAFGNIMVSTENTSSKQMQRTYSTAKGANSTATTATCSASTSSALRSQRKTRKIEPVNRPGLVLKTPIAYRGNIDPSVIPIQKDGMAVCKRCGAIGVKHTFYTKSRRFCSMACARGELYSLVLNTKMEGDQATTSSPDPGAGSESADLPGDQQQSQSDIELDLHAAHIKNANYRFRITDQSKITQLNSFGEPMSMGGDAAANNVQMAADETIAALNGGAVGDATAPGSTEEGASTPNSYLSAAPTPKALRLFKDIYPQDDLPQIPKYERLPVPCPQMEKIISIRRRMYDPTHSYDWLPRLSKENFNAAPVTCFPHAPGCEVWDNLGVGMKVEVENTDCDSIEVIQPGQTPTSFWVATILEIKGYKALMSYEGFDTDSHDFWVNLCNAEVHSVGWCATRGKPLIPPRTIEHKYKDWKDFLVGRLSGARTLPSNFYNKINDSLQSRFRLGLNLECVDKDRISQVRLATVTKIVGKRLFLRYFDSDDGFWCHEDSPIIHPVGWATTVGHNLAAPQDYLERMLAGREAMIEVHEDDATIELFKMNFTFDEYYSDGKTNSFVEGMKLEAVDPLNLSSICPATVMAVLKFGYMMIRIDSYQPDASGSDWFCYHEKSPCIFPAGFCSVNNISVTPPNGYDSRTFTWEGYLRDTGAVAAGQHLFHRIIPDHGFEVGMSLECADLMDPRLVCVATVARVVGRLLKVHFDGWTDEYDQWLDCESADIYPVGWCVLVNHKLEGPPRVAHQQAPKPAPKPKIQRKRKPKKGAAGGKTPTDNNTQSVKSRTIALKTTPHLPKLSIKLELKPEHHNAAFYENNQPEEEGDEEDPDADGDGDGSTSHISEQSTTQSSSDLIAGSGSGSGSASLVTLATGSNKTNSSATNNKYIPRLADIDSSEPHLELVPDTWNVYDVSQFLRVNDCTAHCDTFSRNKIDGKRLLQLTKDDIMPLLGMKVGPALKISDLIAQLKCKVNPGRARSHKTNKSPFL
UniProt P0AC13, sequence (whole entry, looked up): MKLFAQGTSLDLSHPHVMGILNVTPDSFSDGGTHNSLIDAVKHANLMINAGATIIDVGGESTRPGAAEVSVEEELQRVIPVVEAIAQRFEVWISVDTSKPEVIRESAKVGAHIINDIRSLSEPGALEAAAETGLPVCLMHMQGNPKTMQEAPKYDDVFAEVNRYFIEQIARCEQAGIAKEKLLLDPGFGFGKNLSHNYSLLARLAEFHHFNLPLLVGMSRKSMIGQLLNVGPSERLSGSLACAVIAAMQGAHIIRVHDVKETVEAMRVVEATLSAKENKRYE
UniProt P09619, sequence (whole entry, looked up): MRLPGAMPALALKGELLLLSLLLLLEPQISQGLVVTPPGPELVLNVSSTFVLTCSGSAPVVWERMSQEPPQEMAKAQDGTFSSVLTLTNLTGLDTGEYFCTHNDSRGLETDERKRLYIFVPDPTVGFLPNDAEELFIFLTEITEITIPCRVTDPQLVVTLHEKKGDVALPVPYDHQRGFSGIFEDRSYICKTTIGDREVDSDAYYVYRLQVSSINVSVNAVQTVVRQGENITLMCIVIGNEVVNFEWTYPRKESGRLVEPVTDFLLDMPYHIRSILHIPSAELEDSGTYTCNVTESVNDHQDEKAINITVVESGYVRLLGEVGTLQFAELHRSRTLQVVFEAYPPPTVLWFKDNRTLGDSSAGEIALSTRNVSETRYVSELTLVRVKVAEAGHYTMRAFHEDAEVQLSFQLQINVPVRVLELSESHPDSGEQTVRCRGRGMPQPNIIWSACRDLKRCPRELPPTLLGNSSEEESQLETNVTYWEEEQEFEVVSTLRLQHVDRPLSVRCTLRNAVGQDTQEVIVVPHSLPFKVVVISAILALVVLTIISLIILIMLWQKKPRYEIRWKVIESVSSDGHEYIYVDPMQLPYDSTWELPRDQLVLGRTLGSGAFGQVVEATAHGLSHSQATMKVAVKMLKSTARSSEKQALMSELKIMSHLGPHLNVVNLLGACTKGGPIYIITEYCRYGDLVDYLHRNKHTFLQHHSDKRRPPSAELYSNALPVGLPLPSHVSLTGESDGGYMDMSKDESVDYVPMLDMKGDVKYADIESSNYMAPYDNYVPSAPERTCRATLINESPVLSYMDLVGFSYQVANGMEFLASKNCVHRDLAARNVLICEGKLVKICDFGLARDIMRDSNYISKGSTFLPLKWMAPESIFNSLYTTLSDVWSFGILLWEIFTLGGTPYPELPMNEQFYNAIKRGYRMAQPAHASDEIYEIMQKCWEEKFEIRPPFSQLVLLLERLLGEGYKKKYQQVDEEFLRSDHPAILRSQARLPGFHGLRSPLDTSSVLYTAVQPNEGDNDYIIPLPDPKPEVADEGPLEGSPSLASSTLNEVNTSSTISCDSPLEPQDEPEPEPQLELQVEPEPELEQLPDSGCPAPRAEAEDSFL
UniProt O60285, sequence (whole entry, looked up): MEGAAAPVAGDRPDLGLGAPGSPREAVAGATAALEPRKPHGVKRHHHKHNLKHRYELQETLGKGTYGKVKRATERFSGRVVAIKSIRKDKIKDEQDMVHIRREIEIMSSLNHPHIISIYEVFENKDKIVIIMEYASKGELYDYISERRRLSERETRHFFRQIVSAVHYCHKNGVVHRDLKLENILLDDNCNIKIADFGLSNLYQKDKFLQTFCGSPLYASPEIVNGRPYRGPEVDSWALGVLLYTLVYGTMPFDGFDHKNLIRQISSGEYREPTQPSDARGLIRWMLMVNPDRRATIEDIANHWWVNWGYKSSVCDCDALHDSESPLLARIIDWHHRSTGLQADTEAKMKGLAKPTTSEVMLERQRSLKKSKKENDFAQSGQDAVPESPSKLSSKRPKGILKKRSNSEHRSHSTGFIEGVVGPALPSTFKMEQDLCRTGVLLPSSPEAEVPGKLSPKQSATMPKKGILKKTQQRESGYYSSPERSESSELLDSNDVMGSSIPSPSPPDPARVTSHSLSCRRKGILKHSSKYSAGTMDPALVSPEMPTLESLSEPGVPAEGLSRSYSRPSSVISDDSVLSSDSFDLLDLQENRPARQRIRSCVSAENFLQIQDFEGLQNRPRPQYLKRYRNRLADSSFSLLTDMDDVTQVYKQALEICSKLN
UniProt P50552, sequence (whole entry, looked up): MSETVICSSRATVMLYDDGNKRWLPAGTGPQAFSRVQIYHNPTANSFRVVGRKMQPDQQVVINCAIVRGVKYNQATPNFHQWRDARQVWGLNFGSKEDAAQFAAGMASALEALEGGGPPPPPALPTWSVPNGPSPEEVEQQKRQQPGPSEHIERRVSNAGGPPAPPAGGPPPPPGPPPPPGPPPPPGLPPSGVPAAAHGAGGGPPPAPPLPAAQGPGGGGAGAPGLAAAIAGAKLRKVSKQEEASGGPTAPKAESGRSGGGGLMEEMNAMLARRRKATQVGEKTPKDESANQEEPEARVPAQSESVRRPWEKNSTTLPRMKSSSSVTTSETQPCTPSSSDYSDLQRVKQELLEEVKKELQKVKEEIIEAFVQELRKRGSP
UniProt Q07011, sequence (whole entry, looked up): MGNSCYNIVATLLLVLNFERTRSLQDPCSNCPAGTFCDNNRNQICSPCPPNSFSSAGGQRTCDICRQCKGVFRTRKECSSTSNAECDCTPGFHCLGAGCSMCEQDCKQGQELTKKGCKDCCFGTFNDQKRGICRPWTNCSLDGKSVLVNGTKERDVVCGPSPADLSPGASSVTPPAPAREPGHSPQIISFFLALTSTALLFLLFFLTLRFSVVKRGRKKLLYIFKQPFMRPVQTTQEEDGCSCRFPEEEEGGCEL
UniProt P61981, sequence (whole entry, looked up): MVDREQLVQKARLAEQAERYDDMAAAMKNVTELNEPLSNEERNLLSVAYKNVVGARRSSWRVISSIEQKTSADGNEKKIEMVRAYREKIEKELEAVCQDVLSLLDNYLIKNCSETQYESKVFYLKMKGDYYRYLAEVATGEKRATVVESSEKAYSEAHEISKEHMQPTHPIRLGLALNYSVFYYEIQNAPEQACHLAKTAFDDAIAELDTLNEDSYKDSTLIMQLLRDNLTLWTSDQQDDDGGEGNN
UniProt O43639, sequence (whole entry, looked up): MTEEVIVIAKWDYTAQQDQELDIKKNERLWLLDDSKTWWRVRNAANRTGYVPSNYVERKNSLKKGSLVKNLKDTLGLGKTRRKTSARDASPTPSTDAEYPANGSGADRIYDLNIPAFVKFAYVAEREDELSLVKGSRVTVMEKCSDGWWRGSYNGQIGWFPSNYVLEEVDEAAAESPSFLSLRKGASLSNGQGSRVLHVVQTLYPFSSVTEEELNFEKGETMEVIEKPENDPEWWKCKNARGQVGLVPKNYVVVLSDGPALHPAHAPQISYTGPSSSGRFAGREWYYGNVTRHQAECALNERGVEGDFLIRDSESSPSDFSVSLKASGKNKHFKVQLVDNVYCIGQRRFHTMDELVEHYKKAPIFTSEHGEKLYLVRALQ

The Kd of `CC(=O)N[C@@H](CO)C(=O)N[C@@H](Cc1ccccc1)C(=O)N[C@@H](CCC(=O)O)C(=O)N[C@@H](Cc1ccccc1)C(=O)N1CC[C@@H]2C=C[C@H]3CC[C@@H](C(=O)N4CCC[C@H]4C(=O)N4CCC[C@H]4C(=O)N[C@H](C(=O)N[C@@H](CCC(=O)O)C(=O)N[C@@H](CC(=O)O)C(=O)N[C@@H](CCC(=O)O)C(=O)N[C@@H](CC(C)C)C(N)=O)[C@@H](C)O)N3C(=O)[C@H]21` is reported as 40 µM (VASP (Homo sapiens, UniProt P50552); binding, fluorescence).
The Kd of `CC(C)C[C@H](NC(=O)[C@H](CCCNC(=N)N)NC(=O)[C@H](CC(C)C)NC(=O)[C@H](CO)NC(=S)Nc1ccc2c(c1)C(=O)OC21c2ccc(O)cc2Oc2cc(O)ccc21)C(=O)N[C@@H](CCCCN)C(=O)N[C@@H](CS)C(=O)NCC(=O)N[C@@H](CCP(=O)(O)O)C(=O)NCC(=O)N1CCC[C@H]1C(=O)N[C@H](C(=O)N[C@@H](Cc1c[nH]c2ccccc12)C(=O)N[C@@H](CC(C)C)C(=O)N[C@H](C(=O)N1CCC[C@H]1C(=O)N[C@@H](CCCNC(=N)N)C(=O)O)C(C)C)C(C)C` is reported as 22.2 µM (YWHAG (Homo sapiens, UniProt P61981); binding, fluorescence anisotropy; pH 7.5, FITC-labelled phosphopeptide titration).
The Kd of `CC(C)c1nc2c(cc1C(N)=O)CCCC2` is reported as 2500 µM (Beta-lactamase (ampC, Escherichia coli K-12, UniProt P00811)).
The Kd of `O=C(N[C@@H]1c2ccccc2C[C@H]1N1CCCC1)c1ccc(-c2ccnc3[nH]ccc23)nc1` is reported as 1.5 µM (NUAK1 (Homo sapiens, UniProt O60285); binding, competition with immobilised ligand).
`Cn1nc(CCN)c(=O)c2c(=O)[nH]c(N)nc21` gave a Kd of 0.0383 µM (folP (Bacteria, UniProt P0AC13); binding, SPR).
`C=CC1CN(Cc2ccccn2)C(=O)C2CCCC1N2S(=O)(=NC)c1cc(Cl)cc(Cl)c1` (centres unmarked) gave a Kd of over 40 µM (uncharacterized protein, residues 23-253 (Pseudomonas aeruginosa, UniProt Q9HYX8); binding, competitive fluorescence polarization; 30 min, protein 40 nM, added: fluorescent tracer 1 nM).
The Kd of `C[C@H](N)C(=O)N[C@@H](CCCNC(=N)N)C(=O)N[C@H](C(=O)N[C@@H](CCCCN(C)C)C(=O)N[C@@H](CCC(N)=O)C(=O)N[C@H](C(=O)N[C@@H](C)C(=O)N[C@@H](CCCNC(=N)N)C(=O)N[C@@H](CCCCN)C(=O)N[C@@H](CO)C(=O)N[C@H](C(=O)NCC(=O)NCC(=O)N[C@@H](CCCCN)C(=O)N[C@@H](C)C(N)=O)[C@@H](C)O)[C@@H](C)O)[C@@H](C)O` is reported as 3.4 µM (Polycomb protein Sfmbt (Sfmbt, Drosophila melanogaster, UniProt Q9VK33); fluorescence polarization; pH 8.0).
For `C=CC[C@H]1OC(=O)CCNC(=O)[C@H](C)N(C)C(=O)[C@H]([C@@H](C)CC)N(C)C(=O)[C@H]([C@@H](C)CC)NC(=O)[C@@H]2[C@@H](C)CCN2C1=O`, the Kd was 7.7 µM (Platelet-derived growth factor receptor beta, extracellular domain (PDGFRB, Homo sapiens, UniProt P09619); SPR; 22 °C, extracellular domain immobilised).
`CC[C@H](C)[C@H](NC(=O)[C@H](CCCCN)NC(=O)[C@H](C)NC(=O)[C@H](CCCNC(=N)N)NC(=O)[C@H](CCCCN)NC(=O)[C@H](CCC(N)=O)NC(=O)[C@H](CCC(N)=O)NC(=O)[C@H](CC(N)=O)NC(=O)[C@@H](NC(=O)[C@H](CC(C)C)NC(=O)[C@H](CS)NC(=O)[C@@H]1CCCN1C(=O)[C@H](CC(=O)O)NC(=O)[C@H](CC(C)C)NC(=O)[C@H](C)NC(=O)[C@H](C)NC(=O)[C@H](CCC(=O)O)NC(=O)[C@H](Cc1c[nH]c2ccccc12)NC(=O)[C@H](Cc1ccc(O)cc1)NC(=O)[C@H](CCCNC(=N)N)NC(=O)[C@H](CC(N)=O)NC(=O)[C@H](CCCNC(=N)N)NC(=O)[C@H](CCSC)NC(=O)[C@H](CCC(=O)O)NC(=O)[C@H](CCCCN)NC(=O)[C@H](CO)NC(=O)[C@H](Cc1ccccc1)NC(C)=O)[C@@H](C)O)C(=O)N[C@@H](CCCNC(=N)N)C(=O)N[C@@H](CO)C(=O)N[C@H](C(=O)N[C@@H](Cc1ccc(O)cc1)C(=O)N[C@@H](CCC(=O)O)C(=O)N[C@@H](CCC(=O)O)C(=O)NCC(=O)N[C@@H](CCC(=O)O)C(N)=O)[C@@H](C)CC` gave a Kd of 0.009 µM (ERBB2 (Homo sapiens, UniProt P04626); binding, SPR).
The Kd of `CCCC[C@@H]1NC(=O)[C@H](Cc2ccc(O)cc2)NC(=O)[C@@H]2CCCN2C(=O)[C@H](CC(=O)O)NC(=O)[C@H](C)NC(=O)[C@H](Cc2ccccc2)NC(=O)[C@@H]2CSCCC(=O)N3CN(CN(C3)C(=O)CCSC[C@@H](C(=O)N[C@@H](CNC(=O)CCOCCOCCOCCN(CCOCCOCCOCCn3cc(CCC(=O)NCCC(=O)N[C@H]4CSCCC(=O)N5CN6CN(C5)C(=O)CCSC[C@H](NC(=O)[C@@H](CC(=O)O)NC(=O)[C@H](Cc5cccc7ccccc57)NC(=O)[C@@H]5CCCN5C4=O)C(=O)N[C@@H](CCSC)C(=O)N[C@@H](CCCCNC(=N)N)C(=O)N[C@@H](CC(=O)O)C(=O)N[C@@H](Cc4c[nH]c5ccccc45)C(=O)N[C@@H](CO)C(=O)N[C@@H]([C@@H](C)O)C(=O)N4CCC[C@H]4C(=O)N4C[C@H](O)C[C@H]4C(=O)N[C@@H](Cc4c[nH]c5ccccc45)C(=O)N[C@H](C(N)=O)CSCCC6=O)nn3)CCOCCOCCOCCn3cc(CCC(=O)NCCC(=O)N[C@H]4CSCCC(=O)N5CN6CN(C5)C(=O)CCSC[C@H](NC(=O)[C@@H](CC(=O)O)NC(=O)[C@H](Cc5cccc7ccccc57)NC(=O)[C@@H]5CCCN5C4=O)C(=O)N[C@@H](CCSC)C(=O)N[C@@H](CCCCNC(=N)N)C(=O)N[C@@H](CC(=O)O)C(=O)N[C@@H](Cc4c[nH]c5ccccc45)C(=O)N[C@@H](CO)C(=O)N[C@@H]([C@@H](C)O)C(=O)N4CCC[C@H]4C(=O)N4C[C@H](O)C[C@H]4C(=O)N[C@@H](Cc4c[nH]c5ccccc45)C(=O)N[C@H](C(N)=O)CSCCC6=O)nn3)C(N)=O)NC1=O)C(=O)CCSC[C@H](NC(C)=O)C(=O)N[C@@H](CC(C)(C)C)C(=O)N1CCC[C@H]1C(=O)N[C@@H](CCC(=O)O)C(=O)N[C@H](C)C(=O)N1CCC[C@H]1C(=O)N[C@@H](Cc1ccc(O)cc1)C(=O)N2` is reported as 0.014 µM (Tumor necrosis factor receptor superfamily member 9 (Homo sapiens, UniProt Q07011); binding, SPR).
`CSCC[C@H](NC(=O)CNC(=O)[C@H](CCCNC(=N)N)NC(=O)[C@H](C)NC(=O)[C@@H](NC(=O)[C@H](CCC(N)=O)NC(=O)[C@H](Cc1ccc(OP(=O)(O)O)cc1)NC(=O)[C@H](C)NC(=O)[C@H](CS)NC(=O)[C@H](CO)NC(=O)[C@@H](NC(=O)[C@H](CC(C)C)NC(=O)[C@H](CC(=O)O)NC(=O)[C@H](CCCCN)NC(=O)[C@H](CO)NC(=O)[C@H](CO)NC(=O)c1ccc2c(c1)C(=O)OC21c2ccc(N(C)C)cc2Oc2cc(N(C)C)ccc21)C(C)C)C(C)C)C(=O)N[C@@H](CCC(=O)O)C(=O)N[C@@H](CC(=O)O)C(=O)O` has a Kd of 0.727 µM (Cytoplasmic protein NCK2, SH2 domain (NCK2, Homo sapiens, UniProt O43639); binding).

For quick reference, copied from above:
The Kd of `CC(=O)N[C@@H](CO)C(=O)N[C@@H](Cc1ccccc1)C(=O)N[C@@H](CCC(=O)O)C(=O)N[C@@H](Cc1ccccc1)C(=O)N1CC[C@@H]2C=C[C@H]3CC[C@@H](C(=O)N4CCC[C@H]4C(=O)N4CCC[C@H]4C(=O)N[C@H](C(=O)N[C@@H](CCC(=O)O)C(=O)N[C@@H](CC(=O)O)C(=O)N[C@@H](CCC(=O)O)C(=O)N[C@@H](CC(C)C)C(N)=O)[C@@H](C)O)N3C(=O)[C@H]21` is reported as 40 µM (VASP (Homo sapiens, UniProt P50552); binding, fluorescence).
